Results of several laboratories.
A part holds a random share of what one study measured. Positions count from the first letter of the parent shown.

Block 1
Target: CCNB3, cyclin fold, Cln2 fusion (human)
Method: yeast growth competition, sequencing
Sample: yeast
Setting: weak parent motif
Reference: not given
Reading: higher = stronger binding
Starting sequence: NPAT docking peptide (human); PCHRRVLCFDSTT
Change | normalised enrichment score
PCHRRVLAFDSTT [C8A] | -0.0209
PCARRVLCFDSTT [H3A] | 2.13
PCHRRVLCADSTT [F9A] | -0.107
PCHRRVLCFDSAT [T12A] | 0.288
PCHRRVLCFDATT [S11A] | -0.0611
PCHRRVLCLDSTT [F9L] | 0.0276
PCHRRVACFDSTT [L7A] | 0.025
PCHRRVLCFASTT [D10A] | 0.304

Block 2
Target: Sal-like protein 4, full length isoform A (SALL4, Homo sapiens, UniProt Q9UJQ4, residues 1-1053)
UniProt Q9UJQ4, sequence (whole entry, looked up): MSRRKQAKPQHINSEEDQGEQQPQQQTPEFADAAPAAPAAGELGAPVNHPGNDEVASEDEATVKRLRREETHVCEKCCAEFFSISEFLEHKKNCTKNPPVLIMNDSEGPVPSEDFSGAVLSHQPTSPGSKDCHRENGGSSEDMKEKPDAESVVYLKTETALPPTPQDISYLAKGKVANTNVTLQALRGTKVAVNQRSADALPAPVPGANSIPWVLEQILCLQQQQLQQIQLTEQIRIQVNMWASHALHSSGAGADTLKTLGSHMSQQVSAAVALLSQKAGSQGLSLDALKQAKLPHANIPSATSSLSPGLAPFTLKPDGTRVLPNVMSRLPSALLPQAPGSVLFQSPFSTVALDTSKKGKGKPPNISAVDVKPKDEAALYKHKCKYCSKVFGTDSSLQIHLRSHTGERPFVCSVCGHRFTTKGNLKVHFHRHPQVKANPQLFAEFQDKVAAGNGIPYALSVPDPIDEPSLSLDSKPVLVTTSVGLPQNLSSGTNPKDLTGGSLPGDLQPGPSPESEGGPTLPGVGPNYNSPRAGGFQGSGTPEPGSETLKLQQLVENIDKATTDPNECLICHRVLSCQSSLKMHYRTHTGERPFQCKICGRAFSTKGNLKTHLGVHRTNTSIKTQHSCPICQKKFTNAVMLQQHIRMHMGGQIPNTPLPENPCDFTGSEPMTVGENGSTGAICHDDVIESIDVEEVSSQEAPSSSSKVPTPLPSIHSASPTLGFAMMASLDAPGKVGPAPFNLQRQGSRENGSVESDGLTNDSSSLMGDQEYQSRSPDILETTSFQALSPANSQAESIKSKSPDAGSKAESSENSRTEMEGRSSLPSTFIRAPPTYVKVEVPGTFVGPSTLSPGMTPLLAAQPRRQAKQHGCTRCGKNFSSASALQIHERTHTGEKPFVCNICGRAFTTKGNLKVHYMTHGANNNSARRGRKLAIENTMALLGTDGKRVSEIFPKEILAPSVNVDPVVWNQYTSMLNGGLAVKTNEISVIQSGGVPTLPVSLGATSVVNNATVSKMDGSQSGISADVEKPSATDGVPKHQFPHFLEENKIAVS
Method: universal PBM
Form: double-stranded DNA, one strand shown
Sample: in vitro
Concentration: 600 nM
Setting: 8-mer, flanks averaged, mean of replicates
Reading: higher = stronger binding
Oligonucleotide | E-score
AACCGAAC | -0.242
TCAATAAA | 0.411
GGTTTAAC | 0.0708
CAAGTCAC | 0.0125
GCTCGGTA | -0.107
AGCCAAAA | 0.113
CGACCTCC | -0.245
CCCGTCAA | -0.156
AGATAGTA | 0.191
CAAGTTCC | -0.1
AAGACCCT | 0.00598
TATCGGAA | 0.256
AATCTTAT | 0.28
ACATACGC | 0.097
CTAAAGCA | 0.0403
CTATGAAG | 0.16
ATCCCGCA | -0.0633
CCCAATCG | -0.206
GACTGCTA | -0.0282
TTGTTAAA | 0.293
CCGCAGCG | -0.325
CCCTTTTC | -0.0959

Block 3
Target: Interferon regulatory factor 7, full length, phosphomimetic (IRF7, Homo sapiens, UniProt Q92985, residues 1-503, S471D/S472D/S475D/S476D/S477D/S483D/S484D/S487D)
UniProt Q92985, sequence (whole entry, unmodified, looked up): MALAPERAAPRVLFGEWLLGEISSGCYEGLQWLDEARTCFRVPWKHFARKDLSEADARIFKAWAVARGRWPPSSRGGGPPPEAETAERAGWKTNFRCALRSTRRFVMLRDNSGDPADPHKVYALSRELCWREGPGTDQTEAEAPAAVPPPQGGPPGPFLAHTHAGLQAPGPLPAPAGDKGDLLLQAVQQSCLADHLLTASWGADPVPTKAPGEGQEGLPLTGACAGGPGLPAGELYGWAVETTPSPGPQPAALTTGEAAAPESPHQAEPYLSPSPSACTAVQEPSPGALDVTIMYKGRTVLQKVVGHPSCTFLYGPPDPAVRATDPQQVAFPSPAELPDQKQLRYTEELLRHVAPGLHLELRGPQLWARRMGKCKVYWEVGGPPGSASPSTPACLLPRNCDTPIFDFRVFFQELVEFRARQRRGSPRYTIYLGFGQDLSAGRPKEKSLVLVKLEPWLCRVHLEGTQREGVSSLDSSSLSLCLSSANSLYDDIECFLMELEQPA
Method: protein-binding microarray
Form: double-stranded DNA, one strand shown
Sample: in vitro
Concentration: 2200 nM top
Setting: 60-bp whole probe
With: salmon DNA 0.4 mg/ml
Reference: random background probes
Reading: higher = stronger binding
Constant ends, left off below: GCCTAGCAC … GTCTTGATTCGCTTGACGCTGCTG
Oligonucleotide | fitted relative affinity [z-score]
GGTGTAAGGAACTGAAGTGAGTGCTAG | -0.772
TTGCCTTTTGCTTTACTGATGTGCTAG | 3.34
TTCGATTTCAGTTTCGATTAGTGCTAG | 8.64
TTAGTTTTCGGGTATCGGTTAGTGCTA | 6.73
TTAGAACTGAGACTGGATTGGTGCTAG | -0.573
TCAATCTTAGATATTAAACTGTGCTAG | -0.217
TCAAGTATGACTCTGCCACTGTGCTAG | 0.557
TTAGGTTTCCTTCGCCTTTAGTGCTAG | 1.42
TCAGGTATAGCACTAAGACTGTGCTAG | -0.35
TTAGAACTGAGTCTCGAGTAGTGCTAG | -0.422
ATGCTACAATAAGTGTTAGTGTGCTAG | -0.015
TTAGGTATCGGGACTCGGTTAGTGCTA | 0.486
TGCACTCTCTACATGTGTTTGTGCTAG | 1.27
TCAAGTTTCTCTTTCCTACTGTGCTAG | 6.51
GACGAACTGACACTGGAGACGTGCTAG | -0.105
GTCGATCTCAGTATCGAGACGTGCTAG | 0.512
TTAGGTCTTCTACTGCTTTAGTGCTAG | 0.727

Block 4
Target: RING finger protein unkempt homolog, zinc fingers 1-6, SBP tag (UNK, Homo sapiens, UniProt Q9C0B0, residues 30-357)
UniProt Q9C0B0, sequence (30-357, looked up): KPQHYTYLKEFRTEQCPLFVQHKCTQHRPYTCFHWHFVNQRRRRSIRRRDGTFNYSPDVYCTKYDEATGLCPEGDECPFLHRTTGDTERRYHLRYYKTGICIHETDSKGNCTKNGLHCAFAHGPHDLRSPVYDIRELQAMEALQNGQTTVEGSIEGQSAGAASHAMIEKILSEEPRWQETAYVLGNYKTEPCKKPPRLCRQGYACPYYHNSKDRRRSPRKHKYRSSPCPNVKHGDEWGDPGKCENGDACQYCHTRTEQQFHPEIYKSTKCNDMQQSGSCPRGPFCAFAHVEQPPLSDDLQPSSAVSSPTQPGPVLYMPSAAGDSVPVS
Method: RNA Bind-n-Seq
Form: RNA
Sample: in vitro
Concentration: 100 nM
Setting: RNA with constant flanks, vertebrate orthologous sites, ends assumed
Reference: input RNA pool
Reading: higher = stronger binding
Constant ends, left off below: GGGAGUUCUACAGUCCGACGAUC … CAACAGAGGAUUGAGCAUCA
Oligonucleotide | bound/input enrichment [ratio]
AUUGUACUACAAAAAGAUCAUCCUAGUUUUAAGCUAACCACAGUGAUAACUAGUCUGUGCUAGUAGAAUCAUUUGCUAUUACUUUUUAAAUUAUCUGCUUUGUCUGAUACCUGAAACCAC | 0.827
ACCGCAUUAGCACCCUGCCAGCCCAGCAACCUCUCCGUGCACAGCUUAAAUGUUACGGUCUAGCUAGAUUUUUAUUUAAAAUAUGAAAAACUGCUUUUCCCAAGACAUUUUUUAAAGGAA | 0.517
CUACUAUAAACAACUCAGGGCAGUAUUCUCGAUAUCCUUACAGUAACCUAAAUCAGGGAUUAGUUAACAAUACAGGGAUGAAUCAGAAUUUAGGCCUUACAAAUAAUACUCCAAUGAAUC | 1.26
AAUGAGCUGCUGGGGCAGGAAGAUGGGUUUCCUUUCACCCCUCUCAAGGAAAAACCCAAACUGAUUCCUUAACCAUCUAACUAGACUACCACAGGUUAGCUUUAUGUUUUGUUUUGCUUU | 0.752
CUCCCCCUUACCCAUAAAAUAGAACUUUUUAAAAUUGUGUUGCCACCACUUGUUUAAAAAAAUAAAAAAUUAAAAAAAAAAAAAAAAAAAAAAAAAACAACCUUAGCAAUAUUAGGAUAA | 6.11
AUCUCUCAUUUUCUAUGUCCAAAAAAGGUUUUGAAUUUUUAAAUAAUUGCUAGUUUUGAUUAGCUUUGCCCUCAUGAAGUAUUAUUAUAAUCCCCACAAACAGAUAUCUGUCUGAAUUAC | 0.815
UUUCACUACUCUGGGAGCGUGACUGAGCAUGAAGCAGCUACCAGCGCUGUAGGGGGUCAAUAGUAUUUUUGCUGCCUCGGAGUCCCCAAAGCCUUCAAGUGGAAGUGGCAGUAGGUUAUU | 0.663
UUUCAGGGACGCUUUGAUGUAAAAAUUGAAGUUAAGAGCUGAUCACAAGCUCUUUCCCACUAGCCAUUUAAAGAGUUUAAAAAGAUUCAGAAACAAAAAACCUACUAGUCUUGAACAAAC | 0.811

Mixed results
Substance | target | test | test system | setting | how to read | measurement | value
PhoQ, residues 284 288 289 292 302 303 ALASRC | PhoP, residues 12 14 15 18 19 VQALL (Escherichia coli, UniProt P23836) | Sort-seq, measured: YFP reporter | E. coli | PhoQ-PhoP variant library, with: 10 µM Mg2+ | reference: high Mg2+ state, higher = stronger signaling | fold induction | 11.5

Repeated from above (block 3):
Oligonucleotide | fitted relative affinity [z-score]
GGTGTAAGGAACTGAAGTGAGTGCTAG | -0.772
TTAGAACTGAGACTGGATTGGTGCTAG | -0.573
TTAGGTTTCCTTCGCCTTTAGTGCTAG | 1.42
GACGAACTGACACTGGAGACGTGCTAG | -0.105
